Measurements collected from several papers.
Each numbered part is a random draw from the data of one study; scales do not carry over between parts. Positions count from the first letter of the parent shown.

Block 1
Target: Prothrombin, mature alpha-thrombin (F2, Homo sapiens, UniProt P00734)
Method: aptamer microarray, sandwich
Form: DNA with 2'F-ANA
Matrix: in vitro
Concentration: 200 nM
Setting: whole 15-mer aptamer, many near background
Added: Cy3 exosite-II aptamer, 400 nM
Direction: higher = stronger binding
Oligonucleotide: GGTTGGTGTGGTTGG
Modification | mean fluorescence intensity [a.u.]
2'F-ANA at 1 5 8 11 14 15 | 46.8
2'F-ANA at 1 3 5 8 9 10 11 14 | 44
2'F-ANA at 1 4 5 6 7 9 11 12 13 14 15 | 49.2
2'F-ANA at 2 3 9 10 13 14 | 248
2'F-ANA at 1 2 5 6 9 10 12 15 | 55.3
2'F-ANA at 2 3 7 8 10 12 14 | 328
2'F-ANA at 1 3 7 10 13 14 15 | 60.2
2'F-ANA at 3 5 8 9 10 11 12 13 | 63.8
2'F-ANA at 2 4 6 8 11 14 | 91.2
2'F-ANA at 1 3 4 5 6 8 9 | 70.5
2'F-ANA at 2 3 6 7 9 11 | 594
2'F-ANA at 1 2 5 7 13 14 15 | 46.1
2'F-ANA at 1 3 5 10 12 13 | 45.9
2'F-ANA at 4 7 9 11 12 14 | 106
2'F-ANA at 1 2 4 5 7 8 9 10 12 14 15 | 66
2'F-ANA at 1 4 5 6 10 13 14 | 51.2
2'F-ANA at 2 3 5 7 8 9 11 12 13 15 | 134
2'F-ANA at 1 2 3 9 11 14 | 63.6
2'F-ANA at 1 2 4 5 6 7 8 9 10 12 13 | 50.8
2'F-ANA at 1 2 3 4 5 7 8 9 11 12 15 | 212
2'F-ANA at 1 2 6 7 8 12 14 15 | 74.8

Block 2
Target: ABI1, truncated, D143A, DHFR fusion (Arabidopsis thaliana)
Method: DHFR PCA, deep sequencing
Matrix: yeast
Setting: methotrexate growth selection, single substitutions
Added: (+)-ABA 4.8 µM
Reference: wild-type fitted maximum
Direction: higher = stronger binding
Parent: PYL1, truncated, DHFR fusion (Arabidopsis thaliana); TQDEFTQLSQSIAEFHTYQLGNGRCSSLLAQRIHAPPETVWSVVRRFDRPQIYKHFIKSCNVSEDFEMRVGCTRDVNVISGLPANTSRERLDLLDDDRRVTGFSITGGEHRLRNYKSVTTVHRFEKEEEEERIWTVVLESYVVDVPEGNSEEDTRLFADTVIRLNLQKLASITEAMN; partner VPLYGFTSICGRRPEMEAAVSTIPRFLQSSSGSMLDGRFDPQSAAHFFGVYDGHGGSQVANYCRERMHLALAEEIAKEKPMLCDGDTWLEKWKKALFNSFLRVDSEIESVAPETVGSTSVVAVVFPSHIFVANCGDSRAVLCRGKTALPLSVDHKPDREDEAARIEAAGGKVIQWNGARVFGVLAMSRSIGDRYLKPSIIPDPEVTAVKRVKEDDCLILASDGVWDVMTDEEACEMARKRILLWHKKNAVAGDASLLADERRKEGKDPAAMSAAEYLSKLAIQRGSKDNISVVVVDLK
Substitution | relative binding score
S171M | 77.3%
N61P | 1.95%
M68V | 63.1%
F124D | 65.4%
G107C | 6.73%
T86R | 57.1%
C60A | 27.3%
G108E | -12.7%
L166V | -0.604%
R155V | 59.8%
Q19N | 75.1%
R24I | 51.3%
E129W | 54.8%
R98E | 29.7%
I33P | 18.7%
G71M | 0.505%
R123S | 83.4%
R99M | 94.9%
V145N | 10%
E127D | 78.4%
T39D | 61.1%

Block 3
Target: CCNB1, cyclin fold, Cln2 fusion (human)
Method: yeast growth competition, sequencing
Matrix: yeast
Setting: weak parent motif
Reference: not given
Direction: higher = stronger binding
Parent: SLBP docking peptide (human); ARYKRKLLINDFG
Substitution | normalised enrichment score
ARNKRKLLINDFG [Y3N] | 0.907
ARKKRKLLINDFG [Y3K] | 0.198
ADYKRKLLINDFG [R2D] | 0.797
ARHKRKLLINDFG [Y3H] | 0.939
ARYKRKLIINDFG [L8I] | 0.886
ARYKRKLLINDDG [F12D] | 0.673
GRYKRKLLINDFG [A1G] | 0.329
ARYKRKLLINDFL [G13L] | -0.394
ASYKRKLLINDFG [R2S] | 0.0299
ARYKRKLLIRDFG [N10R] | 0.226
ARYKRKLLINDFM [G13M] | 1.03
AIYKRKLLINDFG [R2I] | 0.975
ARYKRKLLINDFI [G13I] | 0.725
IRYKRKLLINDFG [A1I] | -0.173
ARYKRPLLINDFG [K6P] | -0.159
ARYKRKLLINDFR [G13R] | 0.74
ARYKRKSLINDFG [L7S] | 0.344
ARYKSKLLINDFG [R5S] | 0.998
ARYPRKLLINDFG [K4P] | 0.152
ARYKRKLLINYFG [D11Y] | 1.04
ARVKRKLLINDFG [Y3V] | 0.903
ARIKRKLLINDFG [Y3I] | 0.0748

Block 4
Target: RING finger protein unkempt homolog, zinc fingers 1-6, GST-SBP tag (UNK, Homo sapiens, UniProt Q9C0B0, residues 30-357)
Method: RNA Bind-n-Seq
Form: RNA
Matrix: in vitro
Concentration: not given
Setting: RNA with constant flanks, human-mouse chimeric sites, ends assumed
Reference: input RNA pool
Direction: higher = stronger binding
Constant ends, left off below: GGGAGUUCUACAGUCCGACGAUC … CAACAGAGGAUUGAGCAUCA
Residues (chain): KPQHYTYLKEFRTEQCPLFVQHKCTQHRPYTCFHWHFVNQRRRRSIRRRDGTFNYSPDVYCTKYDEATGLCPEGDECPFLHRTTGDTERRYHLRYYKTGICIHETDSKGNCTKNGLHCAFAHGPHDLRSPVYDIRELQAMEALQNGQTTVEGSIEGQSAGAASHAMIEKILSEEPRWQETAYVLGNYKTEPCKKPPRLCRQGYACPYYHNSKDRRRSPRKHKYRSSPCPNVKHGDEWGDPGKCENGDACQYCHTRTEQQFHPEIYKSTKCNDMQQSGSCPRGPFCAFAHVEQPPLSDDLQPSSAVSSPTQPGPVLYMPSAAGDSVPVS
Oligonucleotide | bound/input enrichment
AAAGCCCAAGUAUUUUGAAAAAACUCGAACAGAUUUAACAAGGGUAGCCAGCUUGGAGUCUAGCAACUUGCCAAUGUGUUUACCAAUUUUGGGGGCUGUUUUUCUUUUCUUCUUUCAAAU | 0.464 ratio
AGGAGGAGGUUAAAGGGUGAGAGUGGGGUGGAAGACUGUGUCAUGGCUCUGGAGACACUGUUCAGUGUCCUGCUUUCUCUUUGCAGACUUAUGGCUCCUUACACGCCCUUUCUGACUGAG | 0.0848 ratio
UGGCGCCUGCGCUCCCCACUCGUGUUUUUAAGUGUAUUUUUAUAAGAUACAUGUAUUUGUAAUAGAUUUUUUGAUUAAUAAUGCUGAAAUGCUACUGGAGAUUAUGAAAAAUGUUUCAAU | 168 ratio
GCAAAGGAUGAUGAGGCGGCAGCUGUUGCCCUUUCCUCUCUCGUUCAUGCUUUGGAUGAGUUAAACAUGGUCGCCAUAGUUCGAUAUGCUUAUGACAAAAGAUCUAAUCCUCAAGUUGGU | 0.834 ratio
CGGAGCCCUCCUCUCCCACAGGCCCAAGAUAUAACCCACCAGUGCCUUUUGUCUUCCCGUUAGCUUUGUCAAUCACGCCUGUCCUCUCACGCCCACACCAAGUGCCCCCACCCCUAAGGG | 8.64 ratio
UCUGGUCACACUCGUGUAUAUGGUGUGUGCUUUGUGGACACUUCACUGGGCAAGUUUUUCAUCGGCCAGUUUUCGGAUGACCGCCACUGUUCCAGAUUUAGGACGCUAGUGGCUCACUAU | 0.252 ratio
AACAGAUUGUCUUUAAGCAUUCCAAGCGAGAAUGCUGGGGUGAUCAUUGUUGCCCAUGUGCCUUCUGACUGAGCUUUUAAUUAAUUGCAUGUUACAUUGAUGUUCUUCUCCAGAAUUGUU | 0.267 ratio
CACAGAGCAGCACCUACCUCCUCCUUCUUUCCACACCUGCAAACUCUUUUACUUGGGCUGAAUAUUUAGUGUAAUUACAUCUCAGCUUUGAGGGCUCCUGUGGCAAAUUCCCGGAUUAAA | 0.751 ratio
GCUCUUGGGAAUGUAAUCAGCGCCUUGGGGGACAAGAGCAAGAGAGCCACCCAUGUCCCUUACAGAGACUCUAAGCUAACAAGACUAUUGCAGGAUUCCCUUGGGGGUAAUAGCCAAACC | 0.246 ratio
GUGUCCUGCUUUCAACUAUCACUGAGGAGGCAUCUCUACUGUUCUGUGAGCAUCAGGACUGUAGCGCUUGCCACCACCAUGAGAGUUCAGAAGCAGCCUUUCUGUGGAGGGUGGGAAUGA | 0.0755 ratio
GCAGGAUCUUCUAAGUACCAGUGGGACAUUAUGAAAUCCCUUGGGCUCUCUGAUGACGAGAUAGUAAAGUUUUCUGAAGCAGAACAUUGGCUUGAUUAUUUCCCACCACUGGCCGUUCAG | 0.263 ratio

Block 5
Target: Sal-like protein 4, full length isoform A (SALL4, Homo sapiens, UniProt Q9UJQ4, residues 1-1053)
Chain of UniProt Q9UJQ4 (whole entry, looked up): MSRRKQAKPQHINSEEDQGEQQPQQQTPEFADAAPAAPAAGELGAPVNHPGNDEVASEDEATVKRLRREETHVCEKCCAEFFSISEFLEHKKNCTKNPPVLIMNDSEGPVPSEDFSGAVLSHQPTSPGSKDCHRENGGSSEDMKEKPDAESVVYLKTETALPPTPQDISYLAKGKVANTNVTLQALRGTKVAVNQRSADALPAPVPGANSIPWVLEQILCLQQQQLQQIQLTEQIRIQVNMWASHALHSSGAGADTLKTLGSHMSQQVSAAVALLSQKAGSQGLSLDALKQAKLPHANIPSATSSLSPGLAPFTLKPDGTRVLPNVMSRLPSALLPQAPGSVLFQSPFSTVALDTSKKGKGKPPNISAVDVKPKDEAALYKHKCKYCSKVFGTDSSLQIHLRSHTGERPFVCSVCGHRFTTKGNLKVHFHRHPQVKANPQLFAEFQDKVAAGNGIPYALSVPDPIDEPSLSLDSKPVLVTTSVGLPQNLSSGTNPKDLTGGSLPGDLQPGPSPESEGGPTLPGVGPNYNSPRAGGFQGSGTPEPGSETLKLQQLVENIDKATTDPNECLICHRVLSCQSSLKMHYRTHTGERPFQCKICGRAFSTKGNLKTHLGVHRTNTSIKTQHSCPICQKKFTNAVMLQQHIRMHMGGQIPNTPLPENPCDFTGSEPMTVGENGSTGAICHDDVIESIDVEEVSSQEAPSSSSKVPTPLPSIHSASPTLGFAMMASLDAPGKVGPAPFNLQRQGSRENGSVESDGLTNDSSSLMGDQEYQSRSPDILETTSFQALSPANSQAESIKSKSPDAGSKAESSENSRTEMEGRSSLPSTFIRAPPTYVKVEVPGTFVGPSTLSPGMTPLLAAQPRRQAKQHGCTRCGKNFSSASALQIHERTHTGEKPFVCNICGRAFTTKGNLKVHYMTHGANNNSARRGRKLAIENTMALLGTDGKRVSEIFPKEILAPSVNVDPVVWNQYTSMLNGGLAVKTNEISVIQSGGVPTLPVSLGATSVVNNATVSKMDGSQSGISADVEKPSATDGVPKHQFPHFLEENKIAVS
Method: universal PBM
Form: double-stranded DNA, one strand shown
Matrix: in vitro
Concentration: 600 nM
Setting: 8-mer, flanks averaged, mean of replicates
Direction: higher = stronger binding
Oligonucleotide | E-score
AATCCCTG | -0.16
TCAGCCGA | -0.16
ATACGTCG | 0.077
GCAGGGCC | -0.366
CCCCGCTC | -0.344
AGCGGCCT | -0.402
ATAACTAC | 0.36
CGGTGGAC | -0.215
CTGAGAAA | 0.00415
ACCTGACG | -0.147
AGCCTATC | -0.0479
GCGGACGC | -0.271
TGCTCAAA | 0.0526
CCGCCCGA | -0.279
CATTCGAC | -0.0249
CATCGCAA | 0.036
AATATGGC | 0.197

Block 6
Target: RNA binding protein fox-1 homolog 2, RRM domain, GST-SBP tag (RBFOX2, Homo sapiens, UniProt O43251-10, residues 100-194)
Method: RNA Bind-n-Seq
Form: RNA
Matrix: in vitro
Concentration: 365 nM
Setting: natural RNA segment, single round, ends assumed
Reference: no-protein control
Direction: higher = stronger binding
Constant ends, left off below: GGGAGUUCUACAGUCCGACGAUC … UGGAAUUCUCGGGUGCCAA
Target sequence (chain): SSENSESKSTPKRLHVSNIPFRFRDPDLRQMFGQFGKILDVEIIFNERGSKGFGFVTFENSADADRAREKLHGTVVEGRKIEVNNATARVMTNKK
Oligonucleotide | RBNS enrichment (R)
GAUCUGCUUGCCCCAAACAAAUGGUGUAAGCUGAGGGAAACUCCAACCCCACACUUGAUGCUCUGUCCUCUCCACACAGGCCUCUUGCUCCUAACAGCUCAGCCCUGGCC | 0.256
ACUUCAUAUUGAGAAUAGAAGACGUAGAAAUCAGAUGGAUUUCCAAAGUGGCCAAACUUUUCAACUGUAAUUUUAUAAAUGAUACUACACUGAUAUAGCCAAUUAGAUUU | 0.35
GGACGCCAAAAUGGCAUAACUGAGAUAAGGUGAAUAAGUGACAAAUAAAGCCAGUUUUUUACAAGGUACUUGAUCAUGUUCUCUUGAUUUUAAAUUAGAUUUUAUUCCCA | 0.381
UGAAAUCACAGCCCUGCCAUUGGAGUGGGCGUUUGGAAUCCCUAGUGCUCCUGCUUUCAGUCCCCUCUGCCUUCCAGUGAUCUCUUUCCUACAAGCUGCUUCGAGGUCCA | 0.425
AGAGCUGAGCAUUGUCUCAUCCAGAGCUAAGGACAUGAGUCCUCUAUUUCAAGUAGGGAAACCCAGGUGGACUUUGCUCAAGAUGGUUCCCAAAAUGAGAGGCACCAACU | 0.271
GGCCCUGCCAGUGGGGAAGGAGGCCAAGCAGUGCCUGCCUAUGAAAUUUCAACUUUUCCUUUCAUACGUCUUUAUUACCCAAGUCUUCUCCCGUCCAUUCCAGUCAAAUC | 0.364
GUUAGAAUCGAAGUUUUUCAAAUCCAUUGCUUAGCUAACUUUUUCAUUCUGUCACUUGGCUUCGAUUUUUAUAUUUUCCUAUUAUAUGAAAUGUAUCUUUUGGUUGUUUG | 0.579
GUGGAGGUAAUGCAUCUGAGCCAUCUGGGAAAGAUGUGGACGAUGUCCAGGAGAAACCUAAAGACAUAAUACAGUUCACUGCCGAGAAGCUCUCUGUGGGGGAAGUGUCA | 0.607
CCCCAAACUUCUGUCGAGGAGCAAGGCUUGCCAGCAAGUCAGAAGGAUUUGAACCGAGCAGCCAAUCUUUCCAGCCCUCCCCUACCGACCUCUGCCUGGAGACGCAGCAG | 0.604
GAUGACAACUUGGUUUAUGCAUGAAUAUUGCAGUAUUUCCAUAUAGCAAAAUAACAUUUCUACCCAGGAUAAUAGUCACAGUUUUCCAGGGAGGGAAUGAUAUAAUUUUC | 4.58
UUUAAAAAGCCAGAGAUUUCUUCUGUCUAAACUGUUUCUAUAGCAUUUUCUAAACAAAAAAAAUGGUUUUUUUCUUUGCCUUGUAAUAAGAUUGUAAAUCCAUUUCCUGC | 5.35
GGUGUGAGCCAUUAUACCUGGCUUUCAGGUAUGUUUUCUUAAGACUGCCAUCACAAAUGUCCCGGGGCCUCCUGCAAGACAGUAAUGAAUCCAGGUUAUAGUGCCUUCGA | 0.242

For quick reference, copied from above (block 1):
Modification | mean fluorescence intensity [a.u.]
2'F-ANA at 1 3 4 5 6 8 9 | 70.5
2'F-ANA at 2 3 7 8 10 12 14 | 328
2'F-ANA at 1 5 8 11 14 15 | 46.8
2'F-ANA at 2 3 5 7 8 9 11 12 13 15 | 134
2'F-ANA at 2 4 6 8 11 14 | 91.2
2'F-ANA at 1 3 5 10 12 13 | 45.9
2'F-ANA at 1 3 7 10 13 14 15 | 60.2
